# Results collected from several papers.
# Protocols differ between the studies behind these lines. ± gives the spread as reported.
# Cell line: NIH3T3
Compound,read-out,technique,time,IC50
O=C1Nc2ccc(-c3ccc(-c4ccc(O)cc4)cc3)cc2/C1=C/c1ccc(N2CCNCC2)cc1,cell growth or viability,WST-1,48 h,1.44 µM
O=C(O)Cc1ccccc1Nc1c(Cl)cccc1Cl.O=C(O)Cc1ccccc1Nc1c(Cl)cccc1Cl.c1cnc2c(c1)ccc1cccnc12.c1cnc2c(c1)ccc1cccnc12,cell viability,MTT,48 h,54.8 ± 2.36 µM
Cc1c(C)c(C)[c-](C)c1C.O=C1c2cccc[n+]2[Ir]([Cl])[N]1c1ccccc1,cell growth or viability,SRB,24 h,71 µM
O=[N+]([O-])c1ccc(/N=N/c2ccc(O)c(O)c2)cc1,cell growth or viability,resazurin,72 h,2.77 µM
O=C1Nc2ccc(-c3ccc(C(=O)N4CCCCC4)cc3)cc2/C1=C/c1ccc(N2CCNCC2)cc1,cell growth or viability,WST-1,48 h,0.211 µM
Cc1c(C)c(C)[c-](C)c1C.[Cl][Ir]1[O]C(=Nc2c(-c3ccccc3)cccc2-c2ccccc2)c2cccc[n+]21,cell growth or viability,SRB,24 h,60 µM
O=C1Nc2ccc(-c3ccc(C(=O)N4CCOCC4)cc3)cc2/C1=C/c1ccc(N2CCNCC2)cc1,cell growth or viability,WST-1,48 h,2.65 µM
C[C@H](C(=O)Nc1ccc(Cn2cc(C(F)(F)F)ccc2=O)cc1)N(C)C,cell growth or viability,CCK-8,,441 µM
CCC(CC)c1nc(-c2ccc(O)cc2O)cs1,cell growth or viability,resazurin,72 h,3.8 µM
Cc1ccc(=O)n(-c2ccc(NC(=O)[C@H](C)N(C)C)cc2)c1,cell proliferation,CCK-8,,247 ± 3.8 µM
O=c1oc2ccccc2cc1O,hyaluronan secretion,,72 h,146 ± 92.4 µM

# Some of these lines once more:
Compound,read-out,technique,time,IC50
O=C(O)Cc1ccccc1Nc1c(Cl)cccc1Cl.O=C(O)Cc1ccccc1Nc1c(Cl)cccc1Cl.c1cnc2c(c1)ccc1cccnc12.c1cnc2c(c1)ccc1cccnc12,cell viability,MTT,48 h,54.8 ± 2.36 µM
